Published values pooled from the literature.
Each line is one published result; not all experiments were run side by side. ± marks the error that the study gave. In brackets after ≈: the same amount, converted by molar mass.

Substance = CC(=O)N[C@H](CCCCNC(=O)C(C)F)C(=O)N[C@@H](CS)C(=O)N[C@@H](CS)C(=O)N[C@@H](CCC(=O)O)C(=O)N[C@@H](Cc1c[nH]cn1)C(=O)N[C@H](Cc1ccccc1)C(=O)N[C@@H](CCCNC(=N)N)C(=O)N[C@@H](Cc1c[nH]c2ccccc12)C(=O)N[C@@H](CS)C(=O)N[C@@H](CCCNC(=N)N)C(=O)N1CCC[C@H]1C(=O)N[C@H](C(N)=O)C(C)C (stereo partly shown) [fluorine-18 labelled]; test system = male C57BL/6 mice, B16-F10 tumour; conditions = intravenous, 2 h; scale = relative to: tumour over blood; quantity = tumour to tissue uptake ratio; result = 3.8 ± 0.89
Substance = CN[C@@](C)(C[18F])C(=O)O; test system = SCID mouse SK-OV-3 xenograft, kidney; conditions = 120 min, post injection; quantity = tissue uptake; result = 2.8 ± 0.5 %ID/g
Substance = C/C=C(/C)C(=O)O[C@H]1CC[N+]2([O-])CC=C(COC(=O)[C@@](O)([C@H](C)OC)C(C)(C)O)[C@H]12 (stereo partly shown); test system = human whole blood; conditions = 1000 ng/mL, 60 min, 37 °C; quantity = blood-to-plasma ratio; result = 0.897
Substance = Cc1cnc(C(=O)N[C@H]2CCCCC/C=C\[C@@H]3C[C@@]3(C(=O)NS(=O)(=O)C3CC3)NC(=O)[C@@H]3C[C@@H](Oc4nc5ccccc5c5ccccc45)CN3C2=O)cn1; test system = healthy volunteers; conditions = oral, dose not given, with digoxin; quantity = AUCtau; result = 6320 ng·h/mL
Substance = NC(=O)c1nc(F)c[nH]c1=O; test = UV-Vis spectrophotometry; test system = supercritical CO2; conditions = 120 min, 308 K, 15 MPa, 816.06 kg/m^3; quantity = solubility; result = 254 µg/mL
Substance = C=C1C2CCC(C2)C1(C)C (stereo not shown); test system = pygmy rabbit over mountain cottontail, liver microsomes; conditions = 15 min, pH 7.4; scale = relative to: Brachylagus idahoensis over Sylvilagus nuttallii; quantity = detoxification rate ratio; result = 2.3 fold
Substance = O[C@H]1CCCN[C@@H]1CCCn1cnc2c(Cl)c(Cl)ccc21; test system = human, plasma; conditions = oral, 100 mg single dose, solution, geometric mean; quantity = mean residence time; result = 5.17 h
Substance = CCCCCCCCCCCC(=O)NCCCC[C@H](NC(=O)[C@@H](NC(=O)[C@@H](NC(=O)[C@H](C)NC(=O)[C@H](C)NC(=O)[C@H](CCCCN)NC(=O)[C@H](CCCCN)NC(=O)[C@H](CS)NC(=O)[C@H](CCCCN)NC(=O)[C@@H]1CCCN1C(=O)[C@H](CC(C)C)NC(=O)[C@@H](NC(=O)[C@H](Cc1c[nH]c2ccccc12)NC(=O)[C@H](CC(C)C)NC(=O)[C@@H](N)CCCCN)C(C)C)C(C)C)C(C)C)C(N)=O; test = LC-MS/MS; test system = rat whole blood; conditions = 250 ng/mL, 0 to 180 min, 37 °C; quantity = recovery; result = 15%
Substance = CCCCCCCC(=O)NCC(=O)N[C@@H](Cc1ccccc1)C(=O)N[C@H](C=O)Cc1c[nH]cn1; test system = male C57BL/6 mouse, plasma; conditions = dose not given; scale = relative to: intranasal over oral; quantity = plasma concentration ratio; result = 10
Substance = CCCCCOc1ccc(-c2ccc(-c3ccc(C(=O)N[C@H]4C[C@@H](O)[C@@H](O)NC(=O)[C@@H]5[C@@H](O)[C@@H](C)CN5C(=O)[C@H]([C@@H](C)O)NC(=O)[C@H]([C@H](O)[C@@H](O)c5ccc(O)cc5)NC(=O)[C@@H]5C[C@@H](O)CN5C(=O)[C@H]([C@@H](C)O)NC4=O)cc3)cc2)cc1; test system = adult patients; conditions = iv, dose not given, 3, during treatment; quantity = patients without hepatic or GI adverse events; result = 62%
Substance = CC[C@H](C)[C@H](NC(=O)[C@@H](N)CCCNC(=N)N)C(=O)N[C@H](C(=O)N1CCC[C@H]1C(=O)N[C@@H](C)C(N)=O)C(C)C; test system = human, plasma; conditions = intravenous, 3 mg/kg, single dose, healthy volunteers; quantity = MRT; result = 3.6 min
Substance = C=C1C(=O)O[C@@H]2C[C@@H](C)[C@@H]3C=CC(=O)[C@@]3(C)[C@@H](O)[C@H]12; test = propidium iodide flow cytometry; test system = primary splenocytes, BALB/c mouse; conditions = 48 h, 10% fetal calf serum; quantity = CC50; result = 0.32 ± 0.3 µg/mL (≈ 1.22 µM)
Substance = CN1CC[C@H](c2c(O)cc(O)c3c(=O)cc(-c4ccccc4Cl)oc23)[C@H](O)C1; test system = patients with advanced solid tumours; conditions = intravenous, every 2 weeks, together with: FOLFOX; quantity = maximum tolerated dose; result = 70 mg/m²
Substance = CCCCCCCCCCCC[N+](C)(C)Cc1ccccc1; test = in vitro-in vivo extrapolation; test system = human; quantity = hepatic clearance; result = 1.69 mL/h/g liver
Substance = CNC(=O)c1ccc(-c2cnn3ccc(C(=O)N(C)c4ccc(Cl)c(C(=O)OC)c4)cc23)cc1; test system = beagle dogs, both sexes, plasma; conditions = oral, 15 mg/kg/day, day 1; quantity = Tmax; result = 75 min
Substance = CSCC[C@@H]1NC(=O)[C@H](CC(=O)O)NC(=O)CNC(=O)[C@H](CCCNC(=N)N)NC(=O)[C@H](C)NC(=O)[C@H](CCC(=O)O)NC(=O)[C@H](CCCNC(=N)N)NC(=O)[C@@H]2CSSC[C@@H]3NC(=O)[C@H](CO)NC(=O)[C@H]([C@@H](C)O)NC(=O)[C@@H]4CCCN4C(=O)[C@H](C)NC(=O)[C@H](Cc4c[nH]c5ccccc45)NC(=O)[C@H](CC(=O)O)NC(=O)CNC(=O)[C@H](CCCNC(=N)N)NC(=O)CNC(=O)[C@H](CCC(N)=O)NC(=O)[C@@H]4CCCN4C(=O)[C@@H](NC(=O)CNC(=O)C(C)F)CSSC[C@H](NC(=O)CNC(=O)[C@H](C)NC(=O)[C@H](CC(C)C)NC(=O)[C@H](CSSC[C@@H](C(=O)NCC(N)=O)NC(=O)[C@H]([C@@H](C)O)NC(=O)[C@H](CCCNC(=N)N)NC(=O)[C@@H]4CCCN4C1=O)NC(=O)[C@H](CC(=O)O)NC(=O)[C@H](CO)NC(=O)[C@H](CC(=O)O)NC(=O)[C@H](CCC(N)=O)NC(=O)[C@H](CO)NC3=O)C(=O)N[C@@H](C(C)C)C(=O)N2 (stereo partly shown) [fluorine-18 labelled]; test system = nude mice U-87 MG xenograft, muscle; conditions = intravenous, 0.5 h; quantity = tissue uptake; result = 0.35 ± 0.1 %ID/g
Substance = O=C(c1ccc(F)c(F)c1Nc1ccc(I)cc1F)N1CC(O)([C@@H]2CCCCN2)C1; test = refers to: retinal detachment; test system = human patients; conditions = oral, dose not given, dose escalation, suspension, grade G3; quantity = treatment-related adverse events; result = 0%
Substance = eremomycin pyrrolidide; test = pseudoallergic reaction; test system = male CBA mouse; conditions = intravenous, maximum tolerated dose, together with: concanavalin A; scale = relative to: control group; quantity = inflammation reaction index; result = 5.5%
Substance = [123I]c1cncc(OC[C@@H]2CCN2)c1; test = SPECT; test system = human, cerebellum; conditions = intravenous bolus, 2.1 mCi; scale = relative to: tissue over plasma; quantity = tissue/plasma ratio; result = 13.6
Substance = CC1N=C(c2ccccc2F)c2cc(NCc3ccccc3)ccc2NC1=O (stereo not shown); test = shake flask; test system = PBS; conditions = 24 h, pH 7.4; quantity = solubility; result = 1.35 µM
Substance = C[N+](C)(C)[C@@H](Cc1c[nH]c(=S)[nH]1)C(=O)[O-]; test system = rat treated with 1,25-dihydroxyvitamin D3, kidney; conditions = intravenous; scale = relative to: untreated control rats; quantity = decrease in tissue partition coefficient; result = 60.1%
Substance = CC(C)C[C@H](NC(=O)[C@H](CCC(=O)O)NC(=O)[C@H](CCC(=O)O)NC(=O)[C@H](CC(=O)O)NC(=O)[C@H](CCC(=O)O)NC(=O)[C@H](CCC(=O)O)NC(=O)[C@H](CCC(=O)O)NC(=O)[C@@H](N)CC(=O)O)C(=O)O; test system = rat, plasma; conditions = intravenous, 11.0 mg/kg single dose, 165 min; quantity = plasma concentration; result = 14.3 ng/mL

Excerpt of the above:
Substance = CCCCCCCCCCCC[N+](C)(C)Cc1ccccc1; test = in vitro-in vivo extrapolation; test system = human; quantity = hepatic clearance; result = 1.69 mL/h/g liver
Substance = CC(=O)N[C@H](CCCCNC(=O)C(C)F)C(=O)N[C@@H](CS)C(=O)N[C@@H](CS)C(=O)N[C@@H](CCC(=O)O)C(=O)N[C@@H](Cc1c[nH]cn1)C(=O)N[C@H](Cc1ccccc1)C(=O)N[C@@H](CCCNC(=N)N)C(=O)N[C@@H](Cc1c[nH]c2ccccc12)C(=O)N[C@@H](CS)C(=O)N[C@@H](CCCNC(=N)N)C(=O)N1CCC[C@H]1C(=O)N[C@H](C(N)=O)C(C)C (stereo partly shown) [fluorine-18 labelled]; test system = male C57BL/6 mice, B16-F10 tumour; conditions = intravenous, 2 h; scale = relative to: tumour over blood; quantity = tumour to tissue uptake ratio; result = 3.8 ± 0.89
Substance = CSCC[C@@H]1NC(=O)[C@H](CC(=O)O)NC(=O)CNC(=O)[C@H](CCCNC(=N)N)NC(=O)[C@H](C)NC(=O)[C@H](CCC(=O)O)NC(=O)[C@H](CCCNC(=N)N)NC(=O)[C@@H]2CSSC[C@@H]3NC(=O)[C@H](CO)NC(=O)[C@H]([C@@H](C)O)NC(=O)[C@@H]4CCCN4C(=O)[C@H](C)NC(=O)[C@H](Cc4c[nH]c5ccccc45)NC(=O)[C@H](CC(=O)O)NC(=O)CNC(=O)[C@H](CCCNC(=N)N)NC(=O)CNC(=O)[C@H](CCC(N)=O)NC(=O)[C@@H]4CCCN4C(=O)[C@@H](NC(=O)CNC(=O)C(C)F)CSSC[C@H](NC(=O)CNC(=O)[C@H](C)NC(=O)[C@H](CC(C)C)NC(=O)[C@H](CSSC[C@@H](C(=O)NCC(N)=O)NC(=O)[C@H]([C@@H](C)O)NC(=O)[C@H](CCCNC(=N)N)NC(=O)[C@@H]4CCCN4C1=O)NC(=O)[C@H](CC(=O)O)NC(=O)[C@H](CO)NC(=O)[C@H](CC(=O)O)NC(=O)[C@H](CCC(N)=O)NC(=O)[C@H](CO)NC3=O)C(=O)N[C@@H](C(C)C)C(=O)N2 (stereo partly shown) [fluorine-18 labelled]; test system = nude mice U-87 MG xenograft, muscle; conditions = intravenous, 0.5 h; quantity = tissue uptake; result = 0.35 ± 0.1 %ID/g
